Measured values collected from several papers.
Lines come from different studies, so protocols differ. ± marks the error that the study gave.

Substance	tested on	test	system	conditions	how to read	quantity	result
CC(C)Oc1ccc(-c2ccn3cnc(-c4ccc(OC(C)C)cc4)c3c2)cc1	vesicular stomatitis virus	viral entry, inhibitor		pseudotyped with Junin virus glycoprotein		EC50	> 0.02 µM
CNC(=O)[C@@H](NC(=O)[C@H](CC(C)C)[C@H](O)C(=O)NO)C(C)(C)C	human fibrinogen	SDS-PAGE	Daboia russelii	concentration not given, unit not given, together with: RJ venom	baseline: untreated fibrinogen	remaining fibrinogen γ chain	0.573
O=c1ccn([C@@H]2O[C@](F)(CO)[C@@H](O)[C@H]2O)c(=O)[nH]1	Mammarenavirus lassaense	viral replication	HeLa, Togo			EC50	10.1 µM
Cc1oc(-c2cccc(Cl)c2)nc1CN1CCCC(C(=O)NCCc2ccc(Cl)cc2)C1 (stereo not shown)	SARS-CoV-2	cytopathic effect	USA_WA1/2020	round 1, 5-point		maximum response	43.8%
CCN(C)S(=O)(=O)NCC1CCOC2(CCN(C(=O)C3(c4ccccc4)CCCC3)CC2)C1 (stereo not shown)	Venezuelan equine encephalitis virus	viral replication				EC50	31.6 µM
Cc1cc2ncc(-c3ccc(OC(C)(C)C)cc3)n2cc1-c1ccc(OC(C)C)cc1	vesicular stomatitis virus	viral entry, inhibitor		pseudotyped with Junin virus glycoprotein		EC50	≤ 0.004 µM
CC(C)(C)[C@H](NC(=O)C(F)(F)F)C(=O)N1C[C@H]2[C@@H]([C@H]1C(=O)N[C@H](C#N)C[C@@H]1CCNC1=O)C2(C)C			human, fasted	oral, 500 mg single dose, 28 days, no ritonavir		participants with serious adverse events	0%
CCOC(=O)[C@H]1O[C@@H]1C(=O)N[C@@H](CC(C)C)C(=O)NCCC(C)C	SARS-CoV-2 prototype	pseudovirus infection				EC50	0.23 µM
NC(=O)c1ncn([C@@H]2O[C@H](CO)[C@@H](O)[C@H]2O)n1	SARS coronavirus		FRhK-4	72 h		EC50	50 to 200 mg/L
CS(=O)(=O)NCC1CCOC2(CCN(C(=O)C3(c4cccc(Cl)c4)CCCC3)CC2)C1 (stereo not shown)	Venezuelan equine encephalitis virus	viral replication				EC50	10 µM
O=C(Nc1csc(N2CCOCC2)n1)c1ccc(CN2CCOCC2)cc1	Lake Victoria marburgvirus	viral entry	A549	MARV-GP pseudovirus		EC50	> 100 µM
CCc1c(C(=O)C(N)=O)c2c(OCC(=O)O)cccc2n1Cc1ccccc1	Daboia russelii		C2C12	100 µM, together with: Daboia russelii venom AP	baseline: venom alone	viability difference	-30%
Cc1cccc(C)c1OCC(=O)N[C@@H](Cc1ccccc1)[C@@H](O)C[C@H](Cc1ccccc1)NC(=O)[C@H](C(C)C)N1CCCNC1=O	SARS coronavirus		FRhK-4	72 h		EC50	4 to 8 mg/L
Cc1ccc(C(=O)Oc2ccc(C(O)CNC(C)(C)C)cc2OC(=O)c2ccc(C)cc2)cc1 (stereo not shown)	SARS-CoV-2	viral replication, high-content imaging screen		cell-based		EC50	> 100 µM
CC[C@H](C)[C@H](NC(=O)[C@H](CC(C)C)NC(=O)[C@H](Cc1c[nH]c2ccccc12)NC(=O)[C@H](CCC(N)=O)NC(=O)[C@@H](NC(=O)[C@H](Cc1ccccc1)NC(=O)[C@H](C)NC(=O)[C@H](CCCCNC(=O)COCCOCCNC(=O)COCCOCCNC(=O)CC[C@H](NC(=O)CCCCCCCCCCCCCCCCCCC(=O)O)C(=O)O)NC(=O)[C@H](CCC(N)=O)NC(=O)[C@H](C)NC(=O)[C@@H](NC(=O)[C@H](CCCCN)NC(=O)[C@H](CC(=O)O)NC(=O)[C@H](CC(C)C)NC(=O)C(C)(C)NC(=O)[C@@H](NC(=O)[C@H](CO)NC(=O)[C@H](Cc1ccc(O)cc1)NC(=O)[C@H](CC(=O)O)NC(=O)[C@H](CO)NC(=O)[C@@H](NC(=O)[C@H](Cc1ccccc1)NC(=O)[C@@H](NC(=O)CNC(=O)[C@H](CCC(=O)O)NC(=O)C(C)(C)NC(=O)[C@@H](N)Cc1ccc(O)cc1)[C@@H](C)O)[C@@H](C)O)[C@@H](C)CC)[C@@H](C)CC)C(C)C)C(=O)N[C@@H](C)C(=O)NCC(=O)NCC(=O)N1CCC[C@H]1C(=O)N[C@@H](CO)C(=O)N[C@@H](CO)C(=O)NCC(=O)N[C@@H](C)C(=O)N1CCC[C@H]1C(=O)N1CCC[C@H]1C(=O)N1CCC[C@H]1C(=O)N[C@@H](CO)C(N)=O			healthy subjects, single ascending dose	5.0 mg, titre ≥1:20		treatment-induced ADA positive subjects	0%
Cc1cc2nnn(-c3ccc(OC(C)C)cc3)c2cc1-c1ccc(OC(C)C)cc1	vesicular stomatitis virus	viral entry, inhibitor		pseudotyped with Junin virus glycoprotein		EC50	≤ 0.004 µM
O=C(Nc1ccc(N2CCC3(CCC3)CC2)c(C(F)(F)F)c1)c1ccc(CN2C[C@@H]3C[C@H]2CO3)nc1	Reston ebolavirus	viral replication	A549			EC50	< 0.5 µM
O=C(NCC1CCOC2(CCN(C(=O)C3(c4ccccc4)CCCC3)CC2)C1)c1ccncc1 (stereo not shown)	Venezuelan equine encephalitis virus	viral replication				EC50	> 39.8 µM
O=c1cnn([C@@H]2O[C@H](CO)[C@@H](O)[C@H]2O)c(=O)[nH]1	Junin virus	viral replication, inhibitor	Vero, Candid #1			EC50	0.7 ± 0.5 µM
O=C(N1CCC2(CC1)C[C@@H](CN1CCCCS1(=O)=O)CCO2)C1(c2ccccc2)CCCC1	Yellow fever virus	viral replication	Huh-7			EC50	> 32 µM
O=C(Nc1ccc(N2CCOCC2)cc1)c1cc2occc2n1Cc1ccc(Cl)cc1	Marburg virus	pseudovirus entry	A549			EC50	> 100 µM
O=C(N1CCC2(CC1)CC(CN1CCCCS1(=O)=O)CCO2)C1(c2ccc(F)cc2)CCCC1 (stereo not shown)	Venezuelan equine encephalitis virus	viral replication				EC50	> 39.8 µM
O=C1c2c(O)c(=O)ccn2N([C@@H]2c3ccccc3SCc3c2ccc(F)c3F)[C@@H]2COCCN12	Influenza A virus	viral replication, plaque reduction	A(H5N8) A/gull/Delaware/486/2018	mean		EC50	0.00021 ± 2e-05 µM
COC(=O)NCCc1c(C(O)c2ccccc2)[nH]c2ccc(OC)cc12 (stereo not shown)	lentivirus, spike-pseudotyped, SARS-CoV-2	viral entry	HEK293			EC50	1 µM
CC[C@H](C)[C@H](NC(=O)[C@H](CC(C)C)NC(=O)[C@H](Cc1c[nH]c2ccccc12)NC(=O)[C@H](CCC(N)=O)NC(=O)[C@@H](NC(=O)[C@H](Cc1ccccc1)NC(=O)[C@H](C)NC(=O)[C@H](CCCCNC(=O)COCCOCCNC(=O)COCCOCCNC(=O)CC[C@H](NC(=O)CCCCCCCCCCCCCCCCCCC(=O)O)C(=O)O)NC(=O)[C@H](CCC(N)=O)NC(=O)[C@H](C)NC(=O)[C@@H](NC(=O)[C@H](CCCCN)NC(=O)[C@H](CC(=O)O)NC(=O)[C@H](CC(C)C)NC(=O)C(C)(C)NC(=O)[C@@H](NC(=O)[C@H](CO)NC(=O)[C@H](Cc1ccc(O)cc1)NC(=O)[C@H](CC(=O)O)NC(=O)[C@H](CO)NC(=O)[C@@H](NC(=O)[C@H](Cc1ccccc1)NC(=O)[C@@H](NC(=O)CNC(=O)[C@H](CCC(=O)O)NC(=O)C(C)(C)NC(=O)[C@@H](N)Cc1ccc(O)cc1)[C@@H](C)O)[C@@H](C)O)[C@@H](C)CC)[C@@H](C)CC)C(C)C)C(=O)N[C@@H](C)C(=O)NCC(=O)NCC(=O)N1CCC[C@H]1C(=O)N[C@@H](CO)C(=O)N[C@@H](CO)C(=O)NCC(=O)N[C@@H](C)C(=O)N1CCC[C@H]1C(=O)N1CCC[C@H]1C(=O)N1CCC[C@H]1C(=O)N[C@@H](CO)C(N)=O			human	subcutaneous, 15.0 mg once weekly, week 23, multiple doses		Vz/F	7.61 L
CCC(C)n1ncn(-c2ccc(N3CCN(c4ccc(OCC5COC(Cn6cncn6)(c6ccc(Cl)cc6Cl)O5)cc4)CC3)cc2)c1=O (stereo not shown)	poliovirus 1	viral replication, inhibitor		72 h		EC50	1.23 ± 0.59 µM
O=C(NN1C(=O)C2C3C=CC(C4CC34)C2C1=O)c1ccc(C(F)(F)F)cc1 (stereo not shown)	Monkeypox virus	viral replication	Vero			EC50	0.0012 ± 0.0006 µM
N#C[C@@]1(n2ccc(N)nc2=O)O[C@H](CO)[C@@H](O)[C@H]1O	yellow fever virus	viral replication, cell-based				EC50	> 10 µM

Substance	tested on	test	system	conditions	how to read	quantity	result
Cc1cc2ncn(-c3ccc(OC(C)C)cc3)c2cc1-c1ccc(OC(C)C)cc1	vesicular stomatitis virus	viral entry, inhibitor		pseudotyped with Lassa virus glycoprotein		EC50	≤ 0.004 µM
CC(CN(C)C)CN1c2ccccc2Sc2ccccc21 (stereo not shown)	SARS-CoV-2	viral replication, high-content imaging screen		cell-based		EC50	> 25.1 µM
Cc1cc(C)c2sc(NC(=O)c3cc4ccccc4o3)nc2n1	Yellow fever virus	cytopathic effect, neutral red uptake	Huh-7			EC50	> 32 µM
Cc1cc2nc3c(=O)[nH]c(=O)nc-3n(C[C@H](O)[C@H](O)[C@H](O)CO)c2cc1C	SARS-CoV-2	viral replication, GFP plate reader screen		cell-based		EC50	11.2 µM
O=C(NCC1CCOC2(CCN(C(=O)C3(c4ccccc4)CCCC3)CC2)C1)c1ccccc1 (stereo not shown)	Venezuelan equine encephalitis virus	viral replication				EC50	15.8 µM
Nc1ncnc2c([C@@H]3N[C@H](CO)[C@@H](O)[C@H]3O)c[nH]c12	Junin virus	viral replication, inhibitor	Vero, Candid #1			EC50	> 100 µM
COC(=O)N[C@H](C(=O)N1CCC[C@H]1c1ncc(-c2ccc(-c3ccc(-c4cnc([C@@H]5CCCN5C(=O)[C@@H](NC(=O)OC)C(C)C)[nH]4)cc3)cc2)[nH]1)C(C)C	Enterovirus C (poliovirus)	viral replication	MRC5			EC50	> 29 µM
CCCCCCCCCCCCCCCCOCCCOP(=O)(O)CO[C@H](CO)Cn1ccc(N)nc1=O	Monkeypox virus	viral replication	HEL 299			EC50	0.12 ± 0.07 µM
COc1ccc2c(c1)N(C[C@H](C)CN(C)C)c1ccccc1S2	SARS-CoV-2	viral replication, high-content imaging screen		cell-based		EC50	> 100 µM
CC(CN(C)C)CN1c2ccccc2CCc2ccccc21 (stereo not shown)	Severe acute respiratory syndrome coronavirus	pseudoparticle entry	Vero C1008	48 h		EC50	4.29 µM
O=C(NC1CN2CCC1CC2)c1cc(Cl)cc2c1OC1CCCCC21 (stereo not shown)	SARS-CoV-2	viral replication, GFP plate reader screen	BetaCov/Belgium/GHB-03021/2020	cell-based		EC50	7.94 µM
NC(=O)c1nc(F)c[nH]c1=O	influenza A virus	viral replication	A549, H5N1			EC50	6.2 µM
C[C@@H](Oc1cc(-c2cnn(C3CCNCC3)c2)cnc1N)c1c(Cl)ccc(F)c1Cl	SARS-CoV-2	viral replication, GFP plate reader screen		cell-based		EC50	6.76 µM
O=C(CCCCl)NCC1CCOC2(CCN(C(=O)C3(c4ccccc4)CCCC3)CC2)C1 (stereo not shown)	Venezuelan equine encephalitis virus	viral replication				EC50	3.16 µM
O=c1[nH]c(=O)n([C@H]2C[C@H](O)[C@@H](CO)O2)cc1/C=C/Br	vaccinia virus	viral replication	HEL			EC50	17 µM
CN(C)C1CCN(C(=O)CN(Cc2ccccc2)c2ccccc2)CC1	Marburg virus	pseudovirus entry	A549			EC50	> 100 µM
Nc1ncnc2c([C@@H]3N[C@H](CO)[C@@H](O)[C@H]3O)c[nH]c12	Marburg virus		HeLa, Musoke	0.8 µM, 1 h		viral RNA copies	2.58e+07 copies/mL
N#Cc1c(Nc2ccc(F)cc2)n[nH]c1NS(=O)(=O)c1ccc2ccccc2c1	Western equine encephalitis virus	viral replication	Vero 76, California			EC50	> 6.8 µM
O=C(Nc1ccccc1)OCC(CN1CCCCC1)OC(=O)Nc1ccccc1 (stereo not shown)	SARS-CoV-2	viral replication, GFP plate reader screen		cell-based		EC50	15.1 µM
CO[C@H]1/C=C/O[C@@]2(C)Oc3c(C)c(O)c4c(O)c(c(/C=N/N5CCN(C6CCCC6)CC5)c(O)c4c3C2=O)NC(=O)/C(C)=C\C=C\[C@H](C)[C@H](O)[C@@H](C)[C@@H](O)[C@@H](C)[C@H](OC(C)=O)[C@@H]1C	Yellow fever virus	viral replication	BHK-21			EC50	0.13 µM
CC(C)(C)NC(=O)NCC1CCOC2(CCN(C(=O)C3(c4ccccc4)CCCC3)CC2)C1 (stereo not shown)	Venezuelan equine encephalitis virus	viral replication				EC50	> 39.8 µM
CC(C)Oc1ccc(-c2ccc3cnc(-c4ccc(OC(C)C)cc4)n3c2)cc1	vesicular stomatitis virus	viral entry, inhibitor		pseudotyped with Machupo virus glycoprotein		EC50	> 0.02 µM
oseltamivir carboxylate	Influenza A virus H3N2	MTS				EC50	9.7 µM
Cn1cnc(Cn2c(=O)[nH]/c(=N\c3cc4cn(C)nc4cc3Cl)n(Cc3cc(F)c(F)cc3F)c2=O)n1			human, severe renal impairment, plasma	oral, 375 mg single dose, 3 h		unbound fraction	0.0172
Cn1cnc(Cn2c(=O)[nH]/c(=N\c3cc4cn(C)nc4cc3Cl)n(Cc3cc(F)c(F)cc3F)c2=O)n1	transmissible gastroenteritis virus	viral replication, qRT-PCR	ST			EC50	~50 µM
CNCc1ccc(-c2cc(-c3nc(-c4ccc(S(=O)(=O)C(C)C)cc4)cnc3N)on2)cc1	SARS-CoV-2	viral replication, high-content imaging screen		cell-based		EC50	8.32 µM
CC(C)(C(=O)N1CCC2(CC1)CC(CNS(C)(=O)=O)CCO2)c1ccccc1 (stereo not shown)	Venezuelan equine encephalitis virus	viral replication				EC50	> 39.8 µM

A few entries again:
Substance	tested on	test	system	conditions	how to read	quantity	result
CC(C)Oc1ccc(-c2ccc3cnc(-c4ccc(OC(C)C)cc4)n3c2)cc1	vesicular stomatitis virus	viral entry, inhibitor		pseudotyped with Machupo virus glycoprotein		EC50	> 0.02 µM
oseltamivir carboxylate	Influenza A virus H3N2	MTS				EC50	9.7 µM
Cn1cnc(Cn2c(=O)[nH]/c(=N\c3cc4cn(C)nc4cc3Cl)n(Cc3cc(F)c(F)cc3F)c2=O)n1			human, severe renal impairment, plasma	oral, 375 mg single dose, 3 h		unbound fraction	0.0172
Cn1cnc(Cn2c(=O)[nH]/c(=N\c3cc4cn(C)nc4cc3Cl)n(Cc3cc(F)c(F)cc3F)c2=O)n1	transmissible gastroenteritis virus	viral replication, qRT-PCR	ST			EC50	~50 µM
